Measurements collected from several papers.
Lines come from different studies, so protocols differ. ± marks the error that the study gave.
lecA: PA-I galactophilic lectin (lecA, Pseudomonas aeruginosa, UniProt Q05097)
UniProt Q05097, sequence (whole entry, looked up): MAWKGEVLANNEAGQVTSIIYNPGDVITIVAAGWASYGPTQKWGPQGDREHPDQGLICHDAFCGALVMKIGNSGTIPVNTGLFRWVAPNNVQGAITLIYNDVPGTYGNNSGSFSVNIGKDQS
UniProt P01024, sequence (whole entry, unmodified, looked up): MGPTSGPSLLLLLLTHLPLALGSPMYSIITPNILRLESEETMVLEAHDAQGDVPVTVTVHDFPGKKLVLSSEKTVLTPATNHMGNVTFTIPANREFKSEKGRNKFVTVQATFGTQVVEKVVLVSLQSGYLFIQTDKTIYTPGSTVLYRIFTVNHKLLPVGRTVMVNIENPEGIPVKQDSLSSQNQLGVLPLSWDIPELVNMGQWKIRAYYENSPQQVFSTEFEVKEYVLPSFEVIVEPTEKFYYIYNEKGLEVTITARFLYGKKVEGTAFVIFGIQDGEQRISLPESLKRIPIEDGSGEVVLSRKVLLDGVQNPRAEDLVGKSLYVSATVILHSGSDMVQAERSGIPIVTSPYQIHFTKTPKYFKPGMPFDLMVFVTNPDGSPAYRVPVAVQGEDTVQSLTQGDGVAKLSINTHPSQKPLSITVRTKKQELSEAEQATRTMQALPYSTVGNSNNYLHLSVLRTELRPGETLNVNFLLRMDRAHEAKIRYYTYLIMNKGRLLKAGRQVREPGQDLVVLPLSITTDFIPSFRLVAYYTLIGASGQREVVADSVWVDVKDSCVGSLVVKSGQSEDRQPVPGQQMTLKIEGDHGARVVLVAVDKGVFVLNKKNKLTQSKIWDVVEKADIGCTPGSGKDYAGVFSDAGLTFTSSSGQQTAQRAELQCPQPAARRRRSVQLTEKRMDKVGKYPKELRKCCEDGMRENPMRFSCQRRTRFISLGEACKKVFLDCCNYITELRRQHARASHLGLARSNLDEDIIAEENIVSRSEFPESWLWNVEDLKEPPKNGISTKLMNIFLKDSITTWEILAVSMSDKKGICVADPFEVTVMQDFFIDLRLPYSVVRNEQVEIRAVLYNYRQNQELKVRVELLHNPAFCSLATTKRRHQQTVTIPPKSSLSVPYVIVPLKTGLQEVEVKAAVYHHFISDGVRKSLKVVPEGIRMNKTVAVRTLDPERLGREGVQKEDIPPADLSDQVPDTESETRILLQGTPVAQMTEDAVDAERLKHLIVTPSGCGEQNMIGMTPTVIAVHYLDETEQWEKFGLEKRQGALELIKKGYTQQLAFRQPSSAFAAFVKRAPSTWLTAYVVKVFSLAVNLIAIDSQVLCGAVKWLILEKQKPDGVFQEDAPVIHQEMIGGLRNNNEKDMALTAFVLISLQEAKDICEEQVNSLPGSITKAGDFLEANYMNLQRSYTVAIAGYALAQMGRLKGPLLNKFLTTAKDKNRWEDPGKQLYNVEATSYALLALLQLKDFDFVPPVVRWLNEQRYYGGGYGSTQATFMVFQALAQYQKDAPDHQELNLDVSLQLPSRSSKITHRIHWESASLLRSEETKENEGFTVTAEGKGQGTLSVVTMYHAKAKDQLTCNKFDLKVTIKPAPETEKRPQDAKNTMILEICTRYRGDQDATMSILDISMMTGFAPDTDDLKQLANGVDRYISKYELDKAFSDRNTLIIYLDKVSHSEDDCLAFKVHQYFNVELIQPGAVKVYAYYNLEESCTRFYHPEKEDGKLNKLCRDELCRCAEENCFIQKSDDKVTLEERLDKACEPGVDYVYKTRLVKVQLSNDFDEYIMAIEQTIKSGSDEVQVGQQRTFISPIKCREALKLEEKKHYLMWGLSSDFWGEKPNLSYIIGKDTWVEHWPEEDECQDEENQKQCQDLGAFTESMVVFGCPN
UniProt Q99942, sequence (whole entry, looked up): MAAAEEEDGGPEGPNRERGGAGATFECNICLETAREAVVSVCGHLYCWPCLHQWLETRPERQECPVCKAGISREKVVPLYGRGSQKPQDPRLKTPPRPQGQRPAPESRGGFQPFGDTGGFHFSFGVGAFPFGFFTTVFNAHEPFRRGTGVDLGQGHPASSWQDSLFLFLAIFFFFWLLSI
UniProt Q9Y294, sequence (whole entry, unmodified, looked up): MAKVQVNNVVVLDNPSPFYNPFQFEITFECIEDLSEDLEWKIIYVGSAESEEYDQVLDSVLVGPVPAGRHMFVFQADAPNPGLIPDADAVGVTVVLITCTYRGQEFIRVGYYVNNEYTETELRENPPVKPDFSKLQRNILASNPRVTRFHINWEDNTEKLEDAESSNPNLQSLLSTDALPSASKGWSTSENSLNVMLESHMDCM
UniProt P53341, sequence (whole entry, looked up): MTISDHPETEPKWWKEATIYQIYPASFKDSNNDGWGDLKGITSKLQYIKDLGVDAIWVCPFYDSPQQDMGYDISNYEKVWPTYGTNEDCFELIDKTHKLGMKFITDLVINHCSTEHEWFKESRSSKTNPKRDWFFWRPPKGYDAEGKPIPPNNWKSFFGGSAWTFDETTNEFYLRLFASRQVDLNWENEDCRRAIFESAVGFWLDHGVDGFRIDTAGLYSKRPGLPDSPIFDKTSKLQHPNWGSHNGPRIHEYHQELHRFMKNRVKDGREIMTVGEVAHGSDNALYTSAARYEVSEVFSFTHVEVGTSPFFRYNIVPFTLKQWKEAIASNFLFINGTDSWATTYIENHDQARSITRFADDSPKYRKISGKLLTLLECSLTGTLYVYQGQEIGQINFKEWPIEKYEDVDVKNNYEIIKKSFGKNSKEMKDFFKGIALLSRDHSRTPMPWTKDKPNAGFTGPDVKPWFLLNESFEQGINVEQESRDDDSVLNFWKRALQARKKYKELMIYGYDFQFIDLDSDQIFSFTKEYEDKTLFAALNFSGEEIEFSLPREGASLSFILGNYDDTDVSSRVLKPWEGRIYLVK
UniProt P78417, sequence (whole entry, looked up): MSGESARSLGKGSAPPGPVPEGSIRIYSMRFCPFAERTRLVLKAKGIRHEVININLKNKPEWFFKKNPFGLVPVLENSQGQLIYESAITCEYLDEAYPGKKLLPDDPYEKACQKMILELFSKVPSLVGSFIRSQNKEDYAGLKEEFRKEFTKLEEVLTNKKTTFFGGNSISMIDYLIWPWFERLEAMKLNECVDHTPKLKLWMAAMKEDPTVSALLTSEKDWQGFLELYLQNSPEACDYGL
UniProt P03951, sequence (whole entry, looked up): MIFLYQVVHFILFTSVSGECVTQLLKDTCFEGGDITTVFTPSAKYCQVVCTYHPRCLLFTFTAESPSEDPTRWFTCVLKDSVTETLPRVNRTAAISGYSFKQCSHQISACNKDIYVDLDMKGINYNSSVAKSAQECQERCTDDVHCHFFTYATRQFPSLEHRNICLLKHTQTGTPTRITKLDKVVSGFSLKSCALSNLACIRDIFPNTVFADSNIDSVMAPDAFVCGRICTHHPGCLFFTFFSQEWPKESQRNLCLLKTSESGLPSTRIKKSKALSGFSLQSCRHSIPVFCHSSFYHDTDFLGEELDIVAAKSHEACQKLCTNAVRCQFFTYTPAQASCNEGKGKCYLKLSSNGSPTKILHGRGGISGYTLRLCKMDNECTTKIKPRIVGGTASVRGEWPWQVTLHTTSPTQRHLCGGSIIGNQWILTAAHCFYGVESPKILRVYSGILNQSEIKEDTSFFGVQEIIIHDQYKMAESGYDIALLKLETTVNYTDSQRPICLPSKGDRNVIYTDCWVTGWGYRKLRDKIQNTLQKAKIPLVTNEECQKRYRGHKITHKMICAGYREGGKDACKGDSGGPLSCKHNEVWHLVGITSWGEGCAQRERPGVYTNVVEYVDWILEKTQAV
UniProt Q9NXA8, sequence (whole entry, unmodified, looked up): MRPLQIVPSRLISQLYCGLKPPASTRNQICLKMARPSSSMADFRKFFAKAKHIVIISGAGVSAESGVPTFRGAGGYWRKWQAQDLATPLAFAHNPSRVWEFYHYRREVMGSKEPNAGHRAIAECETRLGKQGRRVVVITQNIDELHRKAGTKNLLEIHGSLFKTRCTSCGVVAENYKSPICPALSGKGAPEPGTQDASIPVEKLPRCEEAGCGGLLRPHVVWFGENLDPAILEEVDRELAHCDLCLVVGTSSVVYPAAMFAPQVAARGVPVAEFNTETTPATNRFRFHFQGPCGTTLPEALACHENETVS

Compound	target	assay	test system	conditions	how to read	measurement	result
O=[N+]([O-])c1ccc(O)c(O)c1	lecA	surface plasmon resonance				ligand efficiency	0.4
COC(=O)C1=Cc2ccccc2S1(=O)=O	E3 ubiquitin-protein ligase RNF5, with Derlin-1 (Homo sapiens, UniProt Q99942)	measured: FLAG-Derlin1	HEK-293T	concentration not given, 2 h		Derlin1 co-immunoprecipitation	increased
CCOc1ccc(C[C@@H]2NC(=O)[C@H](C(C)C)NC(=O)[C@@H](NC(=O)[C@@H](NC(C)=O)[C@@H](C)CC)CSSC[C@@H](C(=O)N[C@H](C(N)=O)[C@@H](C)O)NC(=O)[C@H](CCCNC(=N)N)NC(=O)[C@H](Cc3c[nH]cn3)NC(=O)[C@H](C)NC(=O)CNC(=O)[C@H](Cc3c[nH]c4ccccc34)NC(=O)[C@H](CC(=O)O)NC(=O)[C@H](CCC(N)=O)NC2=O)cc1	Complement C3 (Homo sapiens, UniProt P01024)	isothermal titration calorimetry			reference: 1-methyltryptophan reference	-TΔΔS	-0.3 kcal/mol
CC[C@H](C)[C@H](NC(C)=O)C(=O)N[C@H]1CSSC[C@@H](C(=O)N[C@@H](CC(C)C)C(N)=O)NC(=O)[C@H](CCCNC(=N)N)NC(=O)[C@H](Cc2c[nH]cn2)NC(=O)[C@H](C)NC(=O)CN(C)C(=O)[C@H](Cc2c[nH]c3ccccc23)NC(=O)[C@H](CC(=O)O)NC(=O)[C@H](CCC(N)=O)NC(=O)[C@H](Cc2cn(C)c3ccccc23)NC(=O)[C@H](C(C)C)NC1=O	Complement C3, C3b fragment (Homo sapiens, UniProt P01024)	SPR		25 °C	reference: [Trp(Me)4]-Ac-compstatin	relative association rate constant	1.3
Cc1ccc(C(=O)Nc2ccc(CP(=O)(O)O)cc2CP(=O)(O)O)cc1NC(=O)c1cccc(NC(=O)Nc2cccc(C(=O)Nc3cc(C(=O)Nc4ccc(CP(=O)(O)O)cc4CP(=O)(O)O)ccc3C)c2)c1	Coagulation factor XI (F11, Homo sapiens, UniProt P03951)	enzyme activity, inhibitor		10 µM, added: S-2366 substrate		Km	330 ± 40 µM
C=C1C(=O)O[C@@H]2[C@H]3C(CO)=CC(=O)C3=C(C)C[C@H](OC(=O)Cc3ccc(O)cc3)[C@@H]12	Alpha-glucosidase MAL12 (MAL12, Saccharomyces cerevisiae S288c, UniProt P53341)	fluorescence quenching		298 K		binding free energy	-5.2 kcal/mol
CC[C@H](C)[C@H](NC(=O)[C@H](CCCNC(=N)N)NC(=O)NC[C@H](CCC(N)=O)NC(=O)NC[C@H](CC(C)C)NC(=O)NC[C@H](CCCNC(=N)N)NC(=O)NC[C@H](Cc1ccc2ccccc2c1)NC(=O)[C@H](CCCNC(=N)N)NC(=O)[C@H](CCC(=O)O)NC(C)=O)C(=O)N[C@@H](C)C(N)=O	Histone chaperone ASF1A (Homo sapiens, UniProt Q9Y294)	isothermal titration calorimetry		pH 7.5, 20 °C		-TΔS	-3.1 ± 0.2 kcal/mol
OC[C@H]1O[C@@H](Oc2ccc(-c3cn([C@@H]4O[C@H](CO)[C@@H](n5cc(CCCCc6cn([C@H]7[C@H](O)[C@@H](O)[C@H](n8cc(-c9ccc(O[C@@H]%10O[C@H](CO)[C@H](O)[C@H](O)[C@H]%10O)cc9)nn8)O[C@@H]7CO)nn6)nn5)[C@H](O)[C@H]4O)nn3)cc2)[C@H](O)[C@@H](O)[C@H]1O	lecA	isothermal titration calorimetry		25 °C		ΔH	-16.8 ± 0.5 kcal/mol
O=C(CCl)N(CCNC(=O)C(F)(F)F)c1ccc([N+](=O)[O-])cc1	Glutathione S-transferase omega-1 (GSTO1, Homo sapiens, UniProt P78417)	LC-MS/MS		sum of normalized AUCs		total modified species	100%
O=C1c2ccc(O)cc2OC(Oc2ccc(-c3coc4cc(O)ccc4c3=O)cc2)C1(O)c1ccc(O)cc1 (centres unmarked)	laccase (Trametes versicolor)	substrate, Hill kinetic model		product formation		Hill coefficient	2.04
CCOC(=O)C1=CN([C@@H]2O[C@H](CO)[C@@H](O)[C@H]2O)C=CC1	NAD-dependent protein deacylase sirtuin-5, mitochondrial (SIRT5, Homo sapiens, UniProt Q9NXA8)	isothermal titration calorimetry		concentration not given, without NAD+		−TΔS of binding	negative

Excerpt of the above:
Compound	target	assay	test system	conditions	how to read	measurement	result
CCOc1ccc(C[C@@H]2NC(=O)[C@H](C(C)C)NC(=O)[C@@H](NC(=O)[C@@H](NC(C)=O)[C@@H](C)CC)CSSC[C@@H](C(=O)N[C@H](C(N)=O)[C@@H](C)O)NC(=O)[C@H](CCCNC(=N)N)NC(=O)[C@H](Cc3c[nH]cn3)NC(=O)[C@H](C)NC(=O)CNC(=O)[C@H](Cc3c[nH]c4ccccc34)NC(=O)[C@H](CC(=O)O)NC(=O)[C@H](CCC(N)=O)NC2=O)cc1	Complement C3 (Homo sapiens, UniProt P01024)	isothermal titration calorimetry			reference: 1-methyltryptophan reference	-TΔΔS	-0.3 kcal/mol
